Assay results collected from several papers.
Parts stem from different laboratories: compare values within a part only. “And” joins repeats or separate records; there may be more than shown.
UniProt P31751, sequence (whole entry, looked up): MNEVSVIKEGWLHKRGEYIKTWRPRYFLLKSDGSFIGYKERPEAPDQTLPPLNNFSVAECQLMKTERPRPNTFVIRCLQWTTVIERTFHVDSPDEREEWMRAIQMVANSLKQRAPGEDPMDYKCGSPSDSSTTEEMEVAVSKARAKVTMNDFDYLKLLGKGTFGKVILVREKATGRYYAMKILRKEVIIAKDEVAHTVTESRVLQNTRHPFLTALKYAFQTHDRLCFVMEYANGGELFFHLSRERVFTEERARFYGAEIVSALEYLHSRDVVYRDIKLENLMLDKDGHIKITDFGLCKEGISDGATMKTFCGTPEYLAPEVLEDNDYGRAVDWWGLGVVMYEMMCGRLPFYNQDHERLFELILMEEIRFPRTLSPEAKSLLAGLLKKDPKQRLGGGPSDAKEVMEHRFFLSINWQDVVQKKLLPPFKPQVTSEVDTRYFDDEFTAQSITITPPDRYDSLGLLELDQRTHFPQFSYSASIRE
UniProt P35968, sequence (whole entry, looked up): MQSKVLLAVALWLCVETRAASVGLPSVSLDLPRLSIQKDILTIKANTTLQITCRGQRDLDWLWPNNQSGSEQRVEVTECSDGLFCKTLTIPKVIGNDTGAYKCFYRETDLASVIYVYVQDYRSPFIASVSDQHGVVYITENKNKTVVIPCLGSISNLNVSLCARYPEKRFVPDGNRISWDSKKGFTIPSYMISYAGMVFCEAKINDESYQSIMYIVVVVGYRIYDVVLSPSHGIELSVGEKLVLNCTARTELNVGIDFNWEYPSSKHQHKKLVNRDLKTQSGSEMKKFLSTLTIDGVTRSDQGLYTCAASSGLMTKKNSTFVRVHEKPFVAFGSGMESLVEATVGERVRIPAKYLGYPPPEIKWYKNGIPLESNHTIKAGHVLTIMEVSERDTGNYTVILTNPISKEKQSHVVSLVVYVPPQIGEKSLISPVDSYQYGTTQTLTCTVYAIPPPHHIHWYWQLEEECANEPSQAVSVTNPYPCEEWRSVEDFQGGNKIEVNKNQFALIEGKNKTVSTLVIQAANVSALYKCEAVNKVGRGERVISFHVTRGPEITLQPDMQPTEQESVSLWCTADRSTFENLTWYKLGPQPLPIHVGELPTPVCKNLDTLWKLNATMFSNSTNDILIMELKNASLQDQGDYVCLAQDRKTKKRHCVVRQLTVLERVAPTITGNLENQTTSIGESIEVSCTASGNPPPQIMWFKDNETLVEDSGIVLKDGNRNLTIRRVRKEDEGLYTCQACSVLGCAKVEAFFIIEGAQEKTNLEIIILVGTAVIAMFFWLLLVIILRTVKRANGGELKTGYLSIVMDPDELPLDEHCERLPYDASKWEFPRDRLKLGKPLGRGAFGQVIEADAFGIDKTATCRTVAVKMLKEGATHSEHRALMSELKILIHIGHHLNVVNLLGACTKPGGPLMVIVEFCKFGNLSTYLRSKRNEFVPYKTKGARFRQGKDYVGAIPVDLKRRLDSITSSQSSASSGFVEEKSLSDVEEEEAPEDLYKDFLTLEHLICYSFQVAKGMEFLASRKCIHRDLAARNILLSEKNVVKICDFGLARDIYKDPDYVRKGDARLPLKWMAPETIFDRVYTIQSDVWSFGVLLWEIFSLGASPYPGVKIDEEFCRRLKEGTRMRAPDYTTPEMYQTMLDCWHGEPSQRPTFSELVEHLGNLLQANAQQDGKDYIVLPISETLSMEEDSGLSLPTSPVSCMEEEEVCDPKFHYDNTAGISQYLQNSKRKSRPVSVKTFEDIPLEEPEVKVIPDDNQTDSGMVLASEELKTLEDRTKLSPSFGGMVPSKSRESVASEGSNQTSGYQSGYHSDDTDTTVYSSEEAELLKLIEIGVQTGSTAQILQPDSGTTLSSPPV
UniProt P04049, sequence (whole entry, looked up): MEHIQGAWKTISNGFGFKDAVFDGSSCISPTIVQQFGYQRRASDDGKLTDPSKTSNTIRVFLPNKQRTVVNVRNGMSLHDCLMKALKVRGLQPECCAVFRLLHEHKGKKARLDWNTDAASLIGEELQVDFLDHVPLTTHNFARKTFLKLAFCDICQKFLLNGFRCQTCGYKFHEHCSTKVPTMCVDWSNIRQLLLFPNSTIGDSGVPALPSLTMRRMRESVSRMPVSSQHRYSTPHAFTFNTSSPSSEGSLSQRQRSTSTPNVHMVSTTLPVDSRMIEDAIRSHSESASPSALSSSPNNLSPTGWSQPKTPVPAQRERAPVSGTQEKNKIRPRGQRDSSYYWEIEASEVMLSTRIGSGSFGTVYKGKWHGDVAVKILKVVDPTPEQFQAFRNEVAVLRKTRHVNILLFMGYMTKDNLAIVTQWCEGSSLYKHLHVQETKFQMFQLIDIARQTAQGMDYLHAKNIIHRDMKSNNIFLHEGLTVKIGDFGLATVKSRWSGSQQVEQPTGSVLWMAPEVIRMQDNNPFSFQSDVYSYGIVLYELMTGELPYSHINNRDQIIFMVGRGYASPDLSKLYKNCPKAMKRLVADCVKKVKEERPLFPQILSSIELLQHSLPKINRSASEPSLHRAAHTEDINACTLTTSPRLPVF

Sample 1 — read-out: enzyme activity; mode: inhibitor; tested at: 0.5 µM; reference: control; quantity: remaining activity
SMILES: CN(C)S(=O)(=O)c1ccc2c(c1)/C(=C/c1cc3c([nH]1)CCCC3)C(=O)N2
TXK (Homo sapiens, UniProt P42681): 96%
TLK2 (Homo sapiens, UniProt Q86UE8): 102%
RPS6KA4 (Homo sapiens, UniProt O75676): 104%
MINK1 (Homo sapiens, UniProt Q8N4C8): 83.8%
PLK3 (Homo sapiens, UniProt Q9H4B4): 94.5%
CLK3 (Homo sapiens, UniProt P49761): 92.9%
MARK2 (Homo sapiens, UniProt Q7KZI7): 61.7%
MAPK14 (Homo sapiens, UniProt Q16539): 98.8%
NEK3 (Homo sapiens, UniProt P51956): 98.2%
KDR (Homo sapiens, UniProt P35968): 96.9%
CAMK4 (Homo sapiens, UniProt Q16566): 96.6%
AKT2 (Homo sapiens, UniProt P31751): 105%
GRK4 (Homo sapiens, UniProt P32298): 79.8%
CDC42BPB (Homo sapiens, UniProt Q9Y5S2): 101%

Sample 2 — read-out: enzyme activity; mode: inhibitor; tested at: 77 µM; reference: untreated; quantity: remaining activity
Target: DNA polymerase theta, ATPase domain (POLQ, Homo sapiens, UniProt O75417)
UniProt O75417, sequence (whole entry, unmodified, looked up): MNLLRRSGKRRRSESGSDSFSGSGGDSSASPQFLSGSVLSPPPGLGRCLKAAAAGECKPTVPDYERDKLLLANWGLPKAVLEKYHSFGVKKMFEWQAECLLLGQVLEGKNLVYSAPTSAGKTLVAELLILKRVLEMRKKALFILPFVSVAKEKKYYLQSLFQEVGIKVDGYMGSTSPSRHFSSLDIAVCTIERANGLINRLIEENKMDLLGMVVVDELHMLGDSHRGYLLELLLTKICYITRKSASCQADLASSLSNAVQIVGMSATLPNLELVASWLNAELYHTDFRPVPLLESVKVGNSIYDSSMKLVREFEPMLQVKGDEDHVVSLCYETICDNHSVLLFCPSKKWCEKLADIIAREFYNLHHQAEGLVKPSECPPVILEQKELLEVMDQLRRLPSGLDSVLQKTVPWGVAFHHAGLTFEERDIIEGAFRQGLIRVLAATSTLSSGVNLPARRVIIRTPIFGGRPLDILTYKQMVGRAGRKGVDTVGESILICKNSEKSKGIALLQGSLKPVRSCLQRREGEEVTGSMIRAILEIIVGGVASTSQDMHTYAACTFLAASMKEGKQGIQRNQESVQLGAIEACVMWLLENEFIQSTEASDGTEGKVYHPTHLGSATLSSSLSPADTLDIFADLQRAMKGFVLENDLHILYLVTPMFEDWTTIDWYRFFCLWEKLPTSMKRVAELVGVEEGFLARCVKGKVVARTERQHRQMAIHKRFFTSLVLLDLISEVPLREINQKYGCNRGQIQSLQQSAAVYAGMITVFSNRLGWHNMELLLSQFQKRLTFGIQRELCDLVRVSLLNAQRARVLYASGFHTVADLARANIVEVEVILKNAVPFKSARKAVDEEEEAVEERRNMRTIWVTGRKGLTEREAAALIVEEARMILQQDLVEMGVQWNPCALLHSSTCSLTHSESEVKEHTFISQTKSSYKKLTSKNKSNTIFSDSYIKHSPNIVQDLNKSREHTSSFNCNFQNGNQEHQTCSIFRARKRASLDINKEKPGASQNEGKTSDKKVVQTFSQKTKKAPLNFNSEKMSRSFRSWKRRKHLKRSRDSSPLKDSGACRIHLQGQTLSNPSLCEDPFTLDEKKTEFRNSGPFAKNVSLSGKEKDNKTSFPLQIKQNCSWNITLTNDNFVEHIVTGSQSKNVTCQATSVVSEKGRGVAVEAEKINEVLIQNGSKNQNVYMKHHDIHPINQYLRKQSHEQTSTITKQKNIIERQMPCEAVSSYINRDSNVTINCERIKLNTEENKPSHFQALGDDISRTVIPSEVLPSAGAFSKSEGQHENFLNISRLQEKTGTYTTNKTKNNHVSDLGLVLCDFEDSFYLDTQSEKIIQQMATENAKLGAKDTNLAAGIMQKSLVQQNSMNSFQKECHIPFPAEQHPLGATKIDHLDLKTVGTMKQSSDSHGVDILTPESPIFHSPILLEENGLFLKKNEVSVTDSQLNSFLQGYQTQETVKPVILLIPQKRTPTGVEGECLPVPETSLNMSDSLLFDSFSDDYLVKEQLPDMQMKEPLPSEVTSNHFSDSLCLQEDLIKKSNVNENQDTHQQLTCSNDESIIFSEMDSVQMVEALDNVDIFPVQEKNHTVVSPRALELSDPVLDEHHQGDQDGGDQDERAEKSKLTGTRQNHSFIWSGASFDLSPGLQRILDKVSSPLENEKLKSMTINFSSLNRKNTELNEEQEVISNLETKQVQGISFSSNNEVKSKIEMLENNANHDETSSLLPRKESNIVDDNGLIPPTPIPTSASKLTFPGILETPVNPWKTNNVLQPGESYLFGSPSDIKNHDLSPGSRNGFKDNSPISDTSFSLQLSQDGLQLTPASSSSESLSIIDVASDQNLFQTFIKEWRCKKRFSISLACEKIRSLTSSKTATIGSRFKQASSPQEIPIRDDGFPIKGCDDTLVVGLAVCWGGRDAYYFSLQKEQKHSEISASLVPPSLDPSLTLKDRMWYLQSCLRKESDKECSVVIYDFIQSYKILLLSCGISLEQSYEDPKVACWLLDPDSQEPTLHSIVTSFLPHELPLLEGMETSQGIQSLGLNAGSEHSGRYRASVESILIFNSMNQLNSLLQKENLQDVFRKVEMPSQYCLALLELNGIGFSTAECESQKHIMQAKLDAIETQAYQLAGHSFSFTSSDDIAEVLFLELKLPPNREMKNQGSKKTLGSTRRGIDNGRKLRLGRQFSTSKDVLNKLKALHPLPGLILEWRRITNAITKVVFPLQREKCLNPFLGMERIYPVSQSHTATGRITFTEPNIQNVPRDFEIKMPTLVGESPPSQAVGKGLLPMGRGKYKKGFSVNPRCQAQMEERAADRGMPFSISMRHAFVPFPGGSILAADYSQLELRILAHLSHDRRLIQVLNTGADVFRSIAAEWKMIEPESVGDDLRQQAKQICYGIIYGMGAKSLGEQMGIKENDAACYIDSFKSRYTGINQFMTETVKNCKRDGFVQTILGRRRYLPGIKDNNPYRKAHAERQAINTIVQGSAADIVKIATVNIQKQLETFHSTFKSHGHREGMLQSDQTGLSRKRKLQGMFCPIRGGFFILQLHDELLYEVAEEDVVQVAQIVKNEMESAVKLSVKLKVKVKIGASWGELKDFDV
Cc1cc(/C=C2/SC(=S)NC2=O)c(C)n1-c1cccnc1: 91.1%
C#C[C@]1(O)CC[C@H]2[C@@H]3CCc4cc(O)ccc4[C@H]3CC[C@@]21C: 101%
CC(=O)Nc1ccc([C@H](C)C(=O)Nc2ncc(C(C)C)s2)cc1: 111% and 106% and 107%
CCc1nc(-c2ccc(OC)cc2)[nH]c1-c1ccncc1: 101%
CNC1(C)C2CCC(C2)C1(C)C (stereo not shown): 100%
CC(C)n1cnc2c(NCc3ccccc3O)nc(NCCCO)nc21: 104%
CSc1nc(-c2ccnc(NC(C)c3ccccc3)c2)c(-c2ccc(F)cc2)[nH]1 (stereo not shown): 107%

Sample 3 — technique: phase 2a clinical trial
SMILES: CC(C)n1cnc(-c2ccc(F)cc2)c1-c1ncc(C(=O)Nc2ccc(N3CCN(C)CC3)cc2)[nH]1
Species: patients with idiopathic pulmonary fibrosis
Quantity: patients with treatment-emergent adverse events
refers to: interstitial lung disease; dose not given, Grade 1, all drug arms: 0%
refers to: first degree atrioventricular block; 30 mg once daily, Grade 2: 0%
refers to: protein urine present; dose not given, Grade 4, all drug arms total: 0%
refers to: left ventricular dysfunction; 60 mg once daily, Grade 5: 0%
refers to: carbon dioxide decreased; 30 mg once daily, Grade 5: 0%
refers to: C-reactive protein increased; 60 mg once daily, Grade 5: 0%
refers to: carbon dioxide decreased; dose not given, Grade 5, all drug arms total: 0%

Sample 4 — read-out: cell-free assay; technique: competition with immobilised ligand; tested at: 1 µM; quantity: remaining binding
Compound: Cc1c(NC(=O)c2cc(C(N)=O)nc3cc(F)ccc23)c(C(F)(F)F)nn1Cc1ccc(C(C)(C)C)cc1
Tyrosine-protein kinase ABL1, phosphorylated (ABL1, Homo sapiens, UniProt P00519, Q252H): 100%
PIK3CD (Homo sapiens, UniProt O00329): 100%
MAP4K5 (Homo sapiens, UniProt Q9Y4K4): 92%
EPHA5 (Homo sapiens, UniProt P54756): 74%
RAF1 (Homo sapiens, UniProt P04049): 88%
CIT (Homo sapiens, UniProt O14578): 100%
BRSK1 (Homo sapiens, UniProt Q8TDC3): 100%
KIT (Homo sapiens, UniProt P10721, A829P): 98%
MAP3K11 (Homo sapiens, UniProt Q16584): 100%

A few entries again (sample 1):
MAPK14 (Homo sapiens, UniProt Q16539): 98.8%
NEK3 (Homo sapiens, UniProt P51956): 98.2%
KDR (Homo sapiens, UniProt P35968): 96.9%
CAMK4 (Homo sapiens, UniProt Q16566): 96.6%
AKT2 (Homo sapiens, UniProt P31751): 105%
GRK4 (Homo sapiens, UniProt P32298): 79.8%
